Results collected from several papers.
Each numbered part is a random draw from the data of one study; scales do not carry over between parts.

Set 1
Target: Sal-like protein 4, full length isoform B (SALL4, Homo sapiens, UniProt Q9UJQ4-2, residues 1-616)
Method: universal PBM
Form: double-stranded DNA, one strand shown
Sample: in vitro
Concentration: not given
Setting: 8-mer, flanks averaged, mean of replicates
Direction: higher = stronger binding
For `ACCTAGAG`, the E-score was -0.00638.
For `AACGAAGT`, the E-score was 0.109.
`ATGTTAGA` has an E-score of 0.104.
For `ATTAAGGG`, the E-score was 0.0735.
With `CTCAAACA` the E-score was 0.0814.
With `AAGGTGAG` the E-score was -0.179.
For `ATGCCGCG`, the E-score was -0.251.
The E-score of `AGCAAAAT` is reported as 0.207.
The E-score of `GTAACTAC` is reported as 0.108.
`AACTCGGA` has an E-score of -0.153.
The E-score of `CCGCTCGC` is reported as -0.297.
With `GCAGAACC` the E-score was -0.219.
The E-score of `CTTTCGAC` is reported as 0.0468.
With `GGTTGTAC` the E-score was -0.137.
With `GAGTGATC` the E-score was -0.122.
The E-score of `ACACGAGC` is reported as -0.0896.

Set 2
Target: RNA binding protein fox-1 homolog 2, RRM domain, GST-SBP tag (RBFOX2, Homo sapiens, UniProt O43251-10, residues 100-194)
Method: RNA Bind-n-Seq
Form: RNA
Sample: in vitro
Concentration: 365 nM
Setting: natural RNA segment, single round, ends assumed
Baseline: no-protein control
Direction: higher = stronger binding
Residues (chain): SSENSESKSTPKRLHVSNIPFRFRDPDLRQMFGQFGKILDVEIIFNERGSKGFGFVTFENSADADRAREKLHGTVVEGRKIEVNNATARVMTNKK
For `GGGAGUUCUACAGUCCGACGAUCAAACUCCUUGGGAGGAGAGAGGGCUUCUUUUGGUUUCCCUGGAGUGAGACAGCCAGGUGUCUUUCUUUUGCGGGGGGACACUUCAGACCCAUCAAUAUGGAAUUUUGGGAUGGAAUUCUCGGGUGCCAA`, “RBNS enrichment (R)” read 0.605.
Under “RBNS enrichment (R)”, `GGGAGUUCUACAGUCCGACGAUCUGAAGGAUGCCCAUCUCCACCAGGACAGACUAGCAAAGGCAGUCUGGACACCAUGCUGGGCCUGCUGCAGUCUGACCUCAGCCGUCGUGGUGUCCCCACACAGGCCAAAGUGGAAUUCUCGGGUGCCAA` is recorded as 0.243.
Under “RBNS enrichment (R)”, `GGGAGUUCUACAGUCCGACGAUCUGCCCCUGAAGCCUGGAUCAUUCGUCUUCUCCUUUACCCACCCCUAAACCCCUGAUGCUGGUUAGGAACUUCUCACCCCAACACGUGUCUUAAGUAAGGCAGGGCAAGGCUGGAAUUCUCGGGUGCCAA` is recorded as 0.404.
`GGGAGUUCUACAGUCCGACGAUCUGACAUCCAUAAACAGAGGCAGGCCUAGGCUCUGGAAAGAUCCUCAGUCCUUUCUUACAACAACUUGGAGCCAUAGUAACCUCCGAAAUGAGGUCUCAGCAAGCCACUUUUGGAAUUCUCGGGUGCCAA`: “RBNS enrichment (R)” 0.213.
Under “RBNS enrichment (R)”, `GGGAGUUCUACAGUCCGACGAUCACACCAUGUUUGAGCUCAGACCCCCACUCUCAUUCCCCAGGUGGCUGACCCAGUCCCUGGGGGAAGCCCUGGAUUUCAGAAAGAGCAAGUCUGGAUCUGGGACCCUUUCCUGGAAUUCUCGGGUGCCAA` is recorded as 0.288.
For `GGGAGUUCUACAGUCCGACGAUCACUGUUGCGGAGAGCUCUGAUGGGAACUGUGCAACAUGGAGCGUGGAGCCUGCCGAUCCUAGCUCAGAGAGGCUGCCUUCAUGGCCUGUUACUCCAGCUAACGCUUUGAUUGGAAUUCUCGGGUGCCAA`, “RBNS enrichment (R)” read 0.262.
`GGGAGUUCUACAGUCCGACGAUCUCUCAGUUCUUCAUGGGCUUCACUCUUCCCACUCACGGAAGGGAGGUAGCUCAGGGACCUCCACUGUGGGACCCUUGAGACGCUUCCACUCUGAUUCAGAAACACACUUCUGGAAUUCUCGGGUGCCAA`: “RBNS enrichment (R)” 0.192.
For `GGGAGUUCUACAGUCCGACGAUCCUCGGUCUGUUUCCGACUACAGGCCCCGCUCAUGGGGCUGAGCCACCUAGAGCUGCACAGGGGGCUUUCGGCACUUCCCUGGAACAGUUGUAGGCCUGGCCUUUGCCCAGUGGAAUUCUCGGGUGCCAA`, “RBNS enrichment (R)” read 0.153.
Under “RBNS enrichment (R)”, `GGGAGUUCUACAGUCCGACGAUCUCAGGUUCUAGGAGGUCCUUUAGGAAGACUCUCAAAGGCAAAUCCCUGAUCCCCCGCCCCACCCUUAGCCCUGCCCUCUCACCAGAGCAAAAUUCACUGGGGACUUUUCCUGGAAUUCUCGGGUGCCAA` is recorded as 0.512.
Under “RBNS enrichment (R)”, `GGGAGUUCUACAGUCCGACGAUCAUCGGUGUUUUGAAUUGGUGCCUGCCUAUAGAGAUAUAUUCACAGUUCAAAAGUCAGGUGCUGAGAGAUGGUUUAAAGACAAAUUCAUGAAGGUAUAUUUUGUGUUAUAGUGGAAUUCUCGGGUGCCAA` is recorded as 1.93.
For `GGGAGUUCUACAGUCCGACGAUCCUCUGCCUCCCGGCCUGGGCUUGUUCUCAGGUCAGCCGCUGCUUUGUUCACUAUCAGUCUGGAGUGACUCUAUCUCCAGCAGUGCUCCCUGAGUGGCAGUGUUCCCUCAUUGGAAUUCUCGGGUGCCAA`, “RBNS enrichment (R)” read 0.193.
For `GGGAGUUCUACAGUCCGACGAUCUUACUACAAAGAUUUGCAGAUCUUUAAUCAAGCACUAUGUUAAUACUGUAAUAUCAAAAUACUAUGUCGAAUUAUUUCAGAUGUUCAGAUUGAAUAGGGUAAAAGAAAGUUGGAAUUCUCGGGUGCCAA`, “RBNS enrichment (R)” read 0.635.

Set 3
Target: Interferon regulatory factor 3, full length, phosphomimetic (IRF3, Homo sapiens, UniProt Q14653, residues 1-427, S386D/S396D/S398D/S402D/T404D/S405D)
Method: protein-binding microarray
Form: double-stranded DNA, one strand shown
Sample: in vitro
Concentration: 2540 nM top
Setting: 60-bp whole probe
With: salmon DNA 0.4 mg/ml
Baseline: random background probes
Direction: higher = stronger binding
Shared flanks, not repeated: GCCTAGCAC … GTCTTGATTCGCTTGACGCTGCTG
Target sequence (chain): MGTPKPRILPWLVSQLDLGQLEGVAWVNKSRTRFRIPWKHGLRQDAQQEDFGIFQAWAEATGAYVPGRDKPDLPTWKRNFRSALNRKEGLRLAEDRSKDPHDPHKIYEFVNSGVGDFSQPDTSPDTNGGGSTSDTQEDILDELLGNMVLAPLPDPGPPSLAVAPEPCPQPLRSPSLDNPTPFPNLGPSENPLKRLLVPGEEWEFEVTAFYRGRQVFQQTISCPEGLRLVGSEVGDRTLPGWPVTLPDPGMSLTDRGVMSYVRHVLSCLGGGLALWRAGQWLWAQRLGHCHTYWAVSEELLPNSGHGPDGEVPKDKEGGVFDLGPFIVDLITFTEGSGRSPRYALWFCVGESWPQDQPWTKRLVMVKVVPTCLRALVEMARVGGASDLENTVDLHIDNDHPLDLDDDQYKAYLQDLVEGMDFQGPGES
Under “fitted relative affinity”, `TGGGCTGTGGGTTTGAGTCTGTGCTAG` is recorded as -1.63 z-score.
`ACACTTTCCCCTTCCTAGTTGTGCTAG`: “fitted relative affinity” 4 z-score.
`TTAGAACTGGGGTATCGAATAGTGCTA` — result for “fitted relative affinity”: -0.592 z-score.
`TTAGGTCTCGGAGTGGGTTAGTGCTAG`: “fitted relative affinity” -0.462 z-score.
Under “fitted relative affinity”, `TTAGAACTGGGCTTTCGATTAGTGCTA` is recorded as -0.467 z-score.
`TCAGGTTTTACTTTCTAACTGTGCTAG`: “fitted relative affinity” 3.65 z-score.
`TCAGCCAGCTCTTTCGTACTGTGCTAG`: “fitted relative affinity” -0.401 z-score.
Under “fitted relative affinity”, `TTCCCTCCCTAATTCTGATTGTGCTAG` is recorded as 0.891 z-score.
For `TTAGGTCTCGGTTTAGGTTAGTGCTAG`, “fitted relative affinity” read 1.88 z-score.
Under “fitted relative affinity”, `TTAGGTATCCTAATCCTTTAGTGCTAG` is recorded as 4.09 z-score.
Under “fitted relative affinity”, `TTAGGCATCGGTTTCGGTTAGTGCTAG` is recorded as 4.51 z-score.
`TACCTTTTCACTTTACACACGTGCTAG`: “fitted relative affinity” 3.14 z-score.
Under “fitted relative affinity”, `TTAGGACTGGGTCTCGGGTAGTGCTAG` is recorded as -0.929 z-score.
`GACGGTTTTGGTTCCGGGACGTGCTAG`: “fitted relative affinity” 4.45 z-score.
`GACGGTATGCTTATCCTGACGTGCTAG` — result for “fitted relative affinity”: 0.105 z-score.
Under “fitted relative affinity”, `TTAGGTATCGACTTTCGGATAGTGCTA` is recorded as 1.72 z-score.
`TTAGGTTTCGGGACTGGCTTAGTGCTA`: “fitted relative affinity” 4.37 z-score.
For `GACGGTTTCGTTCTCGGGACGTGCTAG`, “fitted relative affinity” read 7.97 z-score.
`TCAGAAATCAACTTTTTTACTGTGCTA`: “fitted relative affinity” 0.0923 z-score.
`TTAGGTTTCGGGACTGGTTTAGTGCTA` — result for “fitted relative affinity”: 4.95 z-score.
`TTAGAACTGGGGTTACGATTAGTGCTA`: “fitted relative affinity” -0.441 z-score.
Under “fitted relative affinity”, `TTAGGTATCAGTTTCGATTAGTGCTAG` is recorded as 6.74 z-score.
`GACGATATTAGTCTCGAGACGTGCTAG` — result for “fitted relative affinity”: 0.35 z-score.
For `TTAGATTTCAGTTCTGATTAGTGCTAG`, “fitted relative affinity” read 3.41 z-score.
Under “fitted relative affinity”, `TGGTTTTACTTTCTATCTCTGTGCTAG` is recorded as 5.91 z-score.

Set 4
Target: Histone acetyltransferase KAT6A, winged helix 1, GST fusion (KAT6A, Homo sapiens, UniProt Q92794, residues 1-85)
Method: protein binding microarray
Form: double-stranded DNA, one strand shown
Sample: in vitro
Concentration: not given
Setting: 8-mer, flanks averaged, mean of 2 arrays, mostly near background
Baseline: not given
Direction: higher = stronger binding
Construct (chain): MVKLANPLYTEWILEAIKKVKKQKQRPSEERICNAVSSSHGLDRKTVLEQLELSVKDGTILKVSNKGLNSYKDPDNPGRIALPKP
`ACGCGCAT` gave an E-score of 0.364.
The E-score of `ACAACATA` is reported as -0.194.
With `ATTGTCGG` the E-score was 0.141.
For `GTGGGGAA`, the E-score was -0.17.
`CAATTACA` has an E-score of -0.0704.
For `CCCGATAG`, the E-score was 0.131.
With `AGGCACCG` the E-score was 0.0648.
The E-score of `AACGGTCT` is reported as -0.0336.
For `ATCTTGTA`, the E-score was -0.208.
For `CCCGGATA`, the E-score was 0.135.
The E-score of `GAGCATAC` is reported as -0.196.
`ACATCGGA` gave an E-score of -0.0776.
`AAGAAAGA` has an E-score of -0.172.
The E-score of `ATGTCAAA` is reported as -0.0757.
With `ACAATGAC` the E-score was -0.103.
For `GTGGGACA`, the E-score was -0.128.
The E-score of `CGAGTCAC` is reported as 0.016.
`CTTTCCAA` gave an E-score of -0.169.
The E-score of `GTTTGTGA` is reported as -0.148.
The E-score of `GACACTGC` is reported as -0.119.
`CTCAGAGC` gave an E-score of -0.0138.
`CATAACTA` gave an E-score of -0.00608.
With `AACTTACT` the E-score was -0.171.
`GGCTAAGA` gave an E-score of -0.049.

Excerpt of the above (set 3):
Under “fitted relative affinity”, `TGGGCTGTGGGTTTGAGTCTGTGCTAG` is recorded as -1.63 z-score.
`ACACTTTCCCCTTCCTAGTTGTGCTAG`: “fitted relative affinity” 4 z-score.
`TTAGAACTGGGGTATCGAATAGTGCTA` — result for “fitted relative affinity”: -0.592 z-score.
`TTAGGTCTCGGAGTGGGTTAGTGCTAG`: “fitted relative affinity” -0.462 z-score.
Under “fitted relative affinity”, `TTAGAACTGGGCTTTCGATTAGTGCTA` is recorded as -0.467 z-score.
`TCAGGTTTTACTTTCTAACTGTGCTAG`: “fitted relative affinity” 3.65 z-score.
`TCAGCCAGCTCTTTCGTACTGTGCTAG`: “fitted relative affinity” -0.401 z-score.
Under “fitted relative affinity”, `TTCCCTCCCTAATTCTGATTGTGCTAG` is recorded as 0.891 z-score.
For `TTAGGTCTCGGTTTAGGTTAGTGCTAG`, “fitted relative affinity” read 1.88 z-score.
